Measurements of several laboratories.
Every numbered part comes from another study and shows a few of its results, in no order.

Sample 1 — mode: inhibitor; tested at: 20 µM
Target: Replicase polyprotein 1ab, nsp13 helicase (rep, Severe acute respiratory syndrome coronavirus 2, UniProt P0DTD1)
`O=C(NC1(c2ccccc2)CC1)c1c(CN2CCC(N3CCCCC3)CC2)c(-c2cccc(C(F)(F)F)c2)nc2cc(Br)ccc12` gave an inhibition of 5.89%.
`NC(=O)c1cccc(-c2cc(Nc3ccc(OC(F)(F)F)cc3)ncn2)c1` gave an inhibition of 1.17%.
For `O=C(O)CC(O)C(=O)O` (stereo not shown), the inhibition was 3.01%.
`Cc1c(N)nc([C@H](CC(N)=O)NC[C@H](N)C(N)=O)nc1C(=O)N[C@H](C(=O)N[C@H](C)[C@@H](O)[C@H](C)C(=O)N[C@H](C(=O)NCCc1nc(-c2nc(C(=O)NCCCNCCCCN)cs2)cs1)[C@@H](C)O)[C@@H](O[C@@H]1O[C@@H](CO)[C@@H](O)[C@H](O)[C@@H]1O[C@@H]1O[C@H](CO)[C@@H](O)[C@H](OC(N)=O)[C@@H]1O)c1cnc[nH]1` gave an inhibition of 6.68%.
For `CCCCCCCCCC(=O)OC1(c2ccc(Cl)cc2)CCN(CCCC(=O)c2ccc(F)cc2)CC1`, the inhibition was 3.13%.
With `CCCCNc1cc(C(=O)O)cc(S(N)(=O)=O)c1Oc1ccccc1` the inhibition was 11.9%.
With `O=C(NCC(=O)N1CCCC1)Nc1ccc2cnccc2c1` the inhibition was 10.1%.
The inhibition of `C[C@@H]1COCCN1c1cc(C2([S@](C)(=N)=O)CC2)nc(-c2cc[nH]c3nccc2-3)n1` is reported as 1.22%.
With `CN[C@@H](C)[C@H]1[C@H](O)C[C@@]2(C)[C@@H]3CC[C@H]4C(C)(C)[C@@H](NC)CC[C@@]45C[C@@]35CC[C@]12C` the inhibition was 11.8%.
The inhibition of `CCc1c(O)cc(O)c(C(=O)c2ccc(OCCN3CCOCC3)c(OC)c2)c1CC(=O)N(CCOC)CCOC` is reported as 5.11%.
`O=C(c1ccccn1)c1cnn2c(-c3ccncc3)ccnc12` has an inhibition of 5.16%.
For `COC(=O)c1cnn(-c2ccc(F)cc2F)c1/C=N/NC(=S)NC(C)(C)C`, the inhibition was -2.55%.
The inhibition of `CN1CCN(c2cc3c(cc2F)c(=O)c(C(=O)O)cn3-c2ccc(F)cc2)CC1` is reported as 4.28%.
The inhibition of `CCOC(=O)[C@@]1(CCCCCCOc2ccc(Cl)cc2)CO1` is reported as 3.82%.
With `COC(=O)N[C@H](C(=O)N[C@@H](Cc1ccccc1)[C@@H](O)CN(Cc1ccc(-c2ccccn2)cc1)NC(=O)[C@@H](NC(=O)OC)C(C)(C)C)C(C)(C)C` the inhibition was 4.46%.
With `N[C@@H](Cc1cc(I)c(Oc2cc(I)c(O)c(I)c2)c(I)c1)C(=O)O` the inhibition was 1.08%.
`CCOc1ccccc1OCCN[C@H](C)Cc1ccc(OC)c(S(N)(=O)=O)c1` has an inhibition of 0.8%.
For `CNC(=C[N+](=O)[O-])NCCSCc1ccc(CN(C)C)o1`, the inhibition was 3.34%.
`NC[C@H]1O[C@H](O[C@H]2[C@H](O[C@@H]3O[C@H](CO)[C@@H](O)[C@H]3O)[C@@H](O)[C@H](N)C[C@@H]2N)[C@H](N)[C@@H](O)[C@@H]1O` has an inhibition of 3.37%.
`CCOC(=O)N1CCC(=C2c3ccc(Cl)cc3CCc3cccnc32)CC1` gave an inhibition of -4.06%.
`CC(C)(C)CC(=O)Nc1c(F)cc(C(=O)N=c2sccn2COP(=O)(O)O)cc1F` has an inhibition of -1.07%.

Sample 2 — method: universal PBM; molecule type: double-stranded DNA, one strand shown; medium: in vitro; tested at: not given; direction: higher = stronger binding
Target: Sal-like protein 4, full length isoform B (SALL4, Homo sapiens, UniProt Q9UJQ4-2, residues 1-616)
Notes: 8-mer, flanks averaged, mean of replicates
The E-score of `ACATATTG` is reported as 0.302.
With `AGTCGGGA` the E-score was -0.113.
`AGGATGGG` has an E-score of -0.258.
The E-score of `CGCAGCCC` is reported as -0.267.
`CGCAATAC` has an E-score of 0.11.
`AGCGTTAT` has an E-score of 0.137.
`CCGTGTAA` has an E-score of -0.00615.
With `CTCCAAAC` the E-score was -0.049.

Sample 3 — method: RNA Bind-n-Seq; molecule type: RNA; medium: in vitro; tested at: 365 nM; baseline: no-protein control; direction: higher = stronger binding
Target: RNA binding protein fox-1 homolog 2, RRM domain, GST-SBP tag (RBFOX2, Homo sapiens, UniProt O43251-10, residues 100-194)
Notes: natural RNA segment, single round, ends assumed
`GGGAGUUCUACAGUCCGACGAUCAGCAUCAAAGCUUUCUCCUGACAUCUCUUUCCAAGAGUCGGGGUGGCAUCUGUACCCCACCUCACCCCCGAGAAGUGCUAUUGCUUGCCCUCUGCCUCAGCCCCACUAGGUGGAAUUCUCGGGUGCCAA` — result for “RBNS enrichment (R)”: 1.03.
For `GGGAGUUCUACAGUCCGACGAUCUAUUUUGUUGCAAGUUUGUGAGGGGAAAAUGUUUUGGUUUGUUUCUACUGACCUGAAUGUGUUGGAUCUACACGUGUUGUUUUGUUUUUGCUUUAUUGAUGCACGGAUGCUGGAAUUCUCGGGUGCCAA`, “RBNS enrichment (R)” read 0.867.
For `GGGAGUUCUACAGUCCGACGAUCAAAAUCUGAAUCCAUAAGCGUUUAGAACAACAUCAGUUAGAGUUUGAGCAUUAUUCAGCAUUAGGGAAACCACACACUGGUGAGAGGUCUUUCAGUGUACUAAAAGGCAGUGGAAUUCUCGGGUGCCAA`, “RBNS enrichment (R)” read 1.03.
`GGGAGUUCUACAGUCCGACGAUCUGGCACUGCUUUGCAUUGGAGUCAGUUGUAGUCCACAUAGCUGGCUGCAGAGAAAUCAGUCUUACCCAGCAAGGGGAAGGCACACACAAGUUUGCAGAAAGUGUCUCAGAUGGAAUUCUCGGGUGCCAA` — result for “RBNS enrichment (R)”: 0.497.
`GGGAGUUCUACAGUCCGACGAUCGAGGAAUUACGUGCUCUGUGGGUCUCCCCCAACGCGCCUCGCCGGAUCUGAGGGAGAACAAGACCGAUCGGCGGCCACUGCGCCCUUAACUGCAUCCAGCCUGGGGCUGAUGGAAUUCUCGGGUGCCAA` — result for “RBNS enrichment (R)”: 0.646.
Under “RBNS enrichment (R)”, `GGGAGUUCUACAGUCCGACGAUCGGGCAAGCCAAGUACGAAGCAGCAGCCAUCGCGGGCUGCAUCAUCCCCCAGCCAGGUCCCCACCAGGCCUGUCUCCCAGCGUUUGUCUAAUAAACGCACCCCUCCUAAAAUGGAAUUCUCGGGUGCCAA` is recorded as 0.591.
`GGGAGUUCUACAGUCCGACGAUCCCUCCUAAACAAACUAACAAAACCAAUAUGGAGGUGGGGGGAGAUGAAGUCCUGUGGAACUGUCUAUGAAGACUGAAACUCACCAAUUGCUGAGUACUUUCGUUGGGGCAUGGAAUUCUCGGGUGCCAA`: “RBNS enrichment (R)” 0.728.
For `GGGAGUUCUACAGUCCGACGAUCGGUGACAUAUGUGCUUGUGGGCCACAGCUGGAGGAUGGCAAGCUUUCUGUUGUCCUCUGCCUAUGUGGAGUUGACAGGGUUUGGCCUGCAGAUGUGUCUGGACUUGAGCCUGGAAUUCUCGGGUGCCAA`, “RBNS enrichment (R)” read 1.01.

Sample 4 — method: protein binding microarray; molecule type: double-stranded DNA, one strand shown; medium: in vitro; tested at: not given; baseline: not given; direction: higher = stronger binding
Target: Histone acetyltransferase KAT6A, winged helix 2, GST fusion (KAT6A, Homo sapiens, UniProt Q92794, residues 85-181)
Notes: 8-mer, flanks averaged, mean of 2 arrays, mostly near background
Construct (chain): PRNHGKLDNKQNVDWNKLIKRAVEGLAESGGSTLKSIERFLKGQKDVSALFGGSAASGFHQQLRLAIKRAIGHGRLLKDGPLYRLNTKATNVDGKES
With `CACGCGCC` the E-score was 0.061.
`ATGATATC` has an E-score of -0.0654.
For `CAGGACAA`, the E-score was 0.0933.
`CGGACTTA` gave an E-score of -0.202.
`TCGCACCA` gave an E-score of 0.0208.
With `GGAAAGCC` the E-score was 0.0684.
With `CTTGGGGC` the E-score was 0.1.
`GCACTGTA` gave an E-score of 0.0926.

Single results of other studies
With `CCOC(=S)SSC(=S)OCC` the IC50 was 6 µM (Replicase polyprotein 1ab, main protease (rep, Severe acute respiratory syndrome coronavirus 2, UniProt P0DTD1); enzyme activity, inhibitor; without DTT).
With `O=C([O-])[C@H](O)[C@@H](O)[C@H](O)[C@H](O)CO.[Na+]` the GFP-positive cells was 122% (Vesicular stomatitis virus; pseudovirus infection, FDA-approved drug library screen; concentration not given, SARS-CoV-2 spike pseudotype; baseline: vehicle).
The inhibition of `O=c1[nH]nc(Sc2ncc([N+](=O)[O-])s2)n1-c1ccc2c(c1)OCCO2` is reported as 84% (Replicase polyprotein 1ab, 3C-like proteinase (rep, Middle East respiratory syndrome-related coronavirus, UniProt K9N7C7); enzyme activity, inhibitor; MERS-CoV; 10 µM).
The GFP-positive cells of `O=C(O)C(=O)O.[NH-][C@@H]1CCCC[C@H]1[NH-].[Pt+2]` is reported as 99.5% (Vesicular stomatitis virus; pseudovirus infection, FDA-approved drug library screen; concentration not given, SARS-CoV-2 spike pseudotype; baseline: vehicle).

For quick reference, copied from above (sample 2):
The E-score of `ACATATTG` is reported as 0.302.
`CCGTGTAA` has an E-score of -0.00615.
`AGGATGGG` has an E-score of -0.258.
With `CTCCAAAC` the E-score was -0.049.
`CGCAATAC` has an E-score of 0.11.
With `AGTCGGGA` the E-score was -0.113.
`AGCGTTAT` has an E-score of 0.137.
